Measurements gathered from unrelated publications.
Numbered parts are unrelated; each lists some results of a single study. Substitutions count along the parent as printed.

Series 1 — technique: protein-binding microarray; molecule type: double-stranded DNA, one strand shown; sample: in vitro; concentration: not given; reading: higher = stronger binding
Target: Protein C-ets-1 (ETS1, Homo sapiens, UniProt P14921, residues 1-441, K379A, full length assumed)
Sequence of UniProt P14921 (whole entry, unmodified, looked up): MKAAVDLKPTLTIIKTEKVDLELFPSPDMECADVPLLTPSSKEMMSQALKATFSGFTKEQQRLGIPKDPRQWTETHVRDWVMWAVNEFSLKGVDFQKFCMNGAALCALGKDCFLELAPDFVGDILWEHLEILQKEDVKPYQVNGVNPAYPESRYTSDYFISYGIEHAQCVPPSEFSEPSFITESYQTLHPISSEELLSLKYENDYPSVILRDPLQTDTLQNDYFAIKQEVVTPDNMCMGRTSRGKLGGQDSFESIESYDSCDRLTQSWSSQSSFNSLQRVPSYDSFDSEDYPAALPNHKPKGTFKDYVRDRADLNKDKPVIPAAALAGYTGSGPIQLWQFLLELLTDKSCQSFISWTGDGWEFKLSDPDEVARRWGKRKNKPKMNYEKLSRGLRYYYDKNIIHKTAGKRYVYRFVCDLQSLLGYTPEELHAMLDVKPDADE
Setting: k-mer, scored over probes, only values ≥0.25
`ATATGACA` has an E-score of 0.259.
For `CCGGATTA`, the E-score was 0.264.
For `ATATGTCG`, the E-score was 0.293.
The E-score of `TATCAACA` is reported as 0.283.
`ACCACAAC` gave an E-score of 0.259.
With `CGTACTTC` the E-score was 0.253.
The E-score of `AGCGACAC` is reported as 0.274.
The E-score of `GCAACGAC` is reported as 0.251.

Series 2 — observed: binding; technique: phage display NGS; molecule type: peptide; concentration: concentration not given; reference: input library
Target: UDP-N-acetylglucosamine--peptide N-acetylglucosaminyltransferase 110 kDa subunit (OGT, Homo sapiens, UniProt O15294)
Sequence of UniProt O15294 (whole entry, looked up): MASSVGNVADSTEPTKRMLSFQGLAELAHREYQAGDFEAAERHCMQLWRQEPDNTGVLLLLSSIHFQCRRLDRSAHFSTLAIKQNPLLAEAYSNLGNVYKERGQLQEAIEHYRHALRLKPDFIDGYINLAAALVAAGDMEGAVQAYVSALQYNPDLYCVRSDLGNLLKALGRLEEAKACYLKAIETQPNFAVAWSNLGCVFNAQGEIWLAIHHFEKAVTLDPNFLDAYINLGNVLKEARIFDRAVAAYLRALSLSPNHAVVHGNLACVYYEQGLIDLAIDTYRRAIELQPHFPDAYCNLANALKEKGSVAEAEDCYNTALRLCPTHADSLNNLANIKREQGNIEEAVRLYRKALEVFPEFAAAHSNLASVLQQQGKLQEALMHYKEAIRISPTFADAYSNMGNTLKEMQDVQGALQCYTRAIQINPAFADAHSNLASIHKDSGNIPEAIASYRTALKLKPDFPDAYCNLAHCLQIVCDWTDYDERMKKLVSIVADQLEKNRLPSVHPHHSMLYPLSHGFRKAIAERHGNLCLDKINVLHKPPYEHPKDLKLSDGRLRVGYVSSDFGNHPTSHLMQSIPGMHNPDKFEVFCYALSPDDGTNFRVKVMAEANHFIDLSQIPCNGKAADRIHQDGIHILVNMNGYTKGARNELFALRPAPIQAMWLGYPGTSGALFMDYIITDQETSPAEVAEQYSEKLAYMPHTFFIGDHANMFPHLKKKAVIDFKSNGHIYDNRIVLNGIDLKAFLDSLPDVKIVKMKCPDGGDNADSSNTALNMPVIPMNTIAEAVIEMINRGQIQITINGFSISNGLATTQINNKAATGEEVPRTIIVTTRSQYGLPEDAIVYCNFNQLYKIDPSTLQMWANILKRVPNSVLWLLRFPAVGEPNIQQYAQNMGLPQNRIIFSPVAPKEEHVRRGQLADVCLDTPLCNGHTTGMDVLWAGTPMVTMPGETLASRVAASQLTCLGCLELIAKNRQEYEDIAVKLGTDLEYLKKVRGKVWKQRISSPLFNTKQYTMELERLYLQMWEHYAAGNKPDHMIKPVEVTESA
`HQYHHFRDNYNQIFM`: “enrichment fold change” 10.7.
For `RVQIMPVYQIDIPSA`, “enrichment fold change” read 13.2.
Under “enrichment fold change”, `HDHQHESWFVHIPH` is recorded as 10.6.
`YQNHTHHVYEVYHV` — result for “enrichment fold change”: 2.85.

Series 3 — target: vanadate, free oxyanion; technique: microfluidic competitive inhibition; sample: in vitro, cell-free expressed; concentration: not given; reading: lower = stronger binding
Setting: derived from inhibition constants, unchanged parent 676 nM
Parent: PafA, mature enzyme, eGFP fusion (Elizabethkingia meningoseptica, UniProt Q9KJX5); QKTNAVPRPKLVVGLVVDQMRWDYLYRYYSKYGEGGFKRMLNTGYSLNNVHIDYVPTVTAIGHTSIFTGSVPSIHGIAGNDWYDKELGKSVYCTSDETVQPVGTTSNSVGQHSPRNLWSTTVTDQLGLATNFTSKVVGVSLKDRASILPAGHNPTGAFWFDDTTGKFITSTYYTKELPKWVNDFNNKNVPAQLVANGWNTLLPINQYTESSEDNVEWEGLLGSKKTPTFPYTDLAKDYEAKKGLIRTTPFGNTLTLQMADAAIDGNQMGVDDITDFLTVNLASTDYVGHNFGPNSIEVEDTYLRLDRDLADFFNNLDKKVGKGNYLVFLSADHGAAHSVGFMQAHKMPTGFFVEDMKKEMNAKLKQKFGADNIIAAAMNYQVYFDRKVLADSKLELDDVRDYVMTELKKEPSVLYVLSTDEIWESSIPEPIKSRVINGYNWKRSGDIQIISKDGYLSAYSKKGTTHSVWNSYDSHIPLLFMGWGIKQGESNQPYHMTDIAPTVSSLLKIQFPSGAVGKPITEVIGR
Under “oxyanion analog dissociation constant”, `L47G` is recorded as 812 nM.
Under “oxyanion analog dissociation constant”, `N214G` is recorded as 666 nM.
Under “oxyanion analog dissociation constant”, `Q19V` is recorded as 20.5 µM.

Series 4 — target: CCNA1, cyclin fold, Cln2 fusion (human); technique: yeast growth competition, sequencing; sample: yeast; setting: strong parent motif; reference: not given; reading: higher = stronger binding
Parent: viral docking peptide; YKVKRRLVFGADD; partner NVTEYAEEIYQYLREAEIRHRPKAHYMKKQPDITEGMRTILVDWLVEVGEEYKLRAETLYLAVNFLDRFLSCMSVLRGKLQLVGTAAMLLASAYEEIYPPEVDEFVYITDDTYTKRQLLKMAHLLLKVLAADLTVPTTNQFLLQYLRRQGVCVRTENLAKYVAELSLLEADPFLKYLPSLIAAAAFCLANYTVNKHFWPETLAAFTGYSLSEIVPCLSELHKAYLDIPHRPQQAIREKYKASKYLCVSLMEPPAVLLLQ
Under “normalised enrichment score”, `V8K` is recorded as 1.36.
`V3G`: “normalised enrichment score” 0.25.
`K4V` — result for “normalised enrichment score”: -0.308.
For `R6M`, “normalised enrichment score” read 0.963.
For `K4P`, “normalised enrichment score” read 0.375.
For `V3I`, “normalised enrichment score” read 1.18.
`G10W`: “normalised enrichment score” 0.778.
For `R5L`, “normalised enrichment score” read -0.384.
`K2D` — result for “normalised enrichment score”: 1.15.
`G10D` — result for “normalised enrichment score”: 1.67.
`F9S` — result for “normalised enrichment score”: 0.418.
Under “normalised enrichment score”, `D12E` is recorded as 1.08.
For `F9G`, “normalised enrichment score” read 0.314.
For `V8Q`, “normalised enrichment score” read 1.21.
For `G10L`, “normalised enrichment score” read 1.11.
`G10C`: “normalised enrichment score” 1.23.
`R5G` — result for “normalised enrichment score”: -0.111.
For `D12W`, “normalised enrichment score” read 0.401.
`R5D`: “normalised enrichment score” 0.134.
Under “normalised enrichment score”, `V8L` is recorded as 0.959.
`L7W` — result for “normalised enrichment score”: 0.256.
Under “normalised enrichment score”, `L7P` is recorded as 0.188.
`R6F` — result for “normalised enrichment score”: 0.0783.
`F9Y`: “normalised enrichment score” 1.44.
`K4R` — result for “normalised enrichment score”: 1.26.

Series 5 — technique: RNA Bind-n-Seq; molecule type: RNA; sample: in vitro; concentration: 365 nM; reference: no-protein control; reading: higher = stronger binding
Target: RNA binding protein fox-1 homolog 2, RRM domain, GST-SBP tag (RBFOX2, Homo sapiens, UniProt O43251-10, residues 100-194)
Setting: natural RNA segment, single round, ends assumed
Residues (chain): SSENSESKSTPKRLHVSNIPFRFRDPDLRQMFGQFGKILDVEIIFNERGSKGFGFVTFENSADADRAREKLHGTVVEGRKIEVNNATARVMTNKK
Under “RBNS enrichment (R)”, `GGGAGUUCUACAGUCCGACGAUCUGUCCUGGGCCUCUGUGUAGAGCAUGGAGGAAGAAGACGACAAGUUGAUAGGUGUGGUGGACAGAGGCACAGUUGGCUUCAGGGUUCCUUCCCUGUUUUCUCCCCAGAAUUGGAAUUCUCGGGUGCCAA` is recorded as 0.297.
Under “RBNS enrichment (R)”, `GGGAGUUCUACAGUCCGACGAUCUAGAAUAGAAAAUAGAACAUUAUUCAAGUUAAUUGAAAGGUGAGGUUUUUAUACCCCCACUAAUGCUGUGUAUCUGUCUUUCGUUUGUUAACAUUAUUUGCUUAAUUUCUUGGAAUUCUCGGGUGCCAA` is recorded as 0.31.
For `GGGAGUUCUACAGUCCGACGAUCCAUGUGUACAUUCUGCCUAGAGUGUAGCCUAAAGGGCAGGGCCCACGUGUAUAGUAUCUGUAUAUAAGUUGCUGUGUGUCUGUCCUGAUUUCUACAACUGGAGUUUUUUUUGGAAUUCUCGGGUGCCAA`, “RBNS enrichment (R)” read 0.427.
`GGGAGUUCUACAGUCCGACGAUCAAGAAUAAAAACUCACUUGCACGAAUUGAAACGUAAAGAAAUGACACUUGUGAACGUGUGAACGUUAACACUGUAGUUGAUAGAUCUUAAGCUGCUAAUUGUUGAGAGAGUGGAAUUCUCGGGUGCCAA`: “RBNS enrichment (R)” 0.886.
Under “RBNS enrichment (R)”, `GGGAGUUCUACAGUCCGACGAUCUGUUCUCUUACACAUACGUAUGUUAGGAAAAUAGACACAUUUUCAAAGAGAAUGUUCUCUUACAUAUGUUAGGAAAAUAGGCACACUUUCAAAGAGAGGUAUAGGGGCUUUGGAAUUCUCGGGUGCCAA` is recorded as 0.399.
Under “RBNS enrichment (R)”, `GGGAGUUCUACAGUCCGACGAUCCUGUCGCCCAGGCUGAAGUGCGGUGGCGCGAUCUCGGCUCACUGCAAGCUCCACCUCCCAGGUUCACGCCAUUCUCCUGCCUCAGCCUCCCUAGUAGUUGGGACUACAGGUGGAAUUCUCGGGUGCCAA` is recorded as 0.517.
For `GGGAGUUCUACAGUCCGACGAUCGUAUUUUUAUAACUAAACAGAGGAAGUCUUCAGAAGACCUCGCUUUAAAACAAAUUUGUGCAAACACUGCUAGAGUCAUUUUGAAGCUCAAGCAUUUUCACUUUGUUUCUUGGAAUUCUCGGGUGCCAA`, “RBNS enrichment (R)” read 0.434.
For `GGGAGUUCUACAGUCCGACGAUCGGGAAAUAAAAAGAGCAGGGCACUGCUGGUGGGAAGAGGCAUUUUACCUUCCAGUGCAAAUCCUGCUCCUUUGAUUUAAUGGGGUGUACUGGGGCCAGGGGCUGAUUCACUGGAAUUCUCGGGUGCCAA`, “RBNS enrichment (R)” read 0.804.

Other studies, line by line — technique: cross-linking MS; sample: cell fractions
For `CCT3 (Homo sapiens, UniProt P49368)`, cross-linked residues read “K222 to D548” (CCT8 (Homo sapiens, UniProt P50990); added: DMTMM).
Under cross-linked residues, `SF3A3 (Homo sapiens, UniProt Q12874)` is recorded as “K420 to K514” (SF3B2 (Homo sapiens, UniProt Q13435); added: DSSO).
For `MYCBP2 (Homo sapiens, UniProt O75592)`, cross-linked residues read “S899 to K418” (PARP1 (Homo sapiens, UniProt P09874); added: DSSO).
For `REV3L (Homo sapiens, UniProt O60673)`, cross-linked residues read “K1205 to K26” (PFDN1 (Homo sapiens, UniProt O60925); added: DSSO).
